# Published values gathered from unrelated publications.
# Parts stem from different laboratories: compare values within a part only.

# Study 1
# Target: RNA binding protein fox-1 homolog 2, RRM domain, GST-SBP tag (RBFOX2, Homo sapiens, UniProt O43251-10, residues 100-194)
# Technique: RNA Bind-n-Seq
# Form: RNA
# Matrix: in vitro
# Tested at: 365 nM
# Notes: natural RNA segment, single round, ends assumed
# Relative to: no-protein control
# Reading: higher = stronger binding
# Constant ends, left off below: GGGAGUUCUACAGUCCGACGAUC … UGGAAUUCUCGGGUGCCAA
# Target sequence (chain): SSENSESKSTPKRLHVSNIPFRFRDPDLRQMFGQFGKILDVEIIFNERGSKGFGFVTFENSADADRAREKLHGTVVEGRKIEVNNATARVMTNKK
Oligonucleotide,RBNS enrichment (R)
UUAAAGUGAGAUUAAUUUAGCUGUAAUUUGGUUAAAAACUUCCUAAGAGAGAAAAUUAAGUCUACUGAUUUGGUAUAGGUAAAUGGACAUUAAACUUUUUUAAAGUAAAG,0.431
GCAGUCAGGUUGUUUACCAGCCCUUUGCACCUCCCCAGGCAGAGGGAGCCUCUGUUCUGGUGGGGGCCACCUCCCUCAGAGGCUCUGCUAGCCACACUCCGUGGCCCACC,0.196
AGCGAGUCCAGCAGGGAGUCCAGCAACGAGGAUGAGGGCAGCAGCUCCGAGGCCGACGAGAUGGCCAAGGCGCUGGAGGCGGAGCUCAACGACCUCAUGUGAGCGCGGGC,0.4
UGAGGUACUUGCUAGGGCGGAUCCUCACCGGAAGUUCGGAGCCAGAGGCUGCUCCUGCCCCGCGCCGCCUCCGCCGAUCUGUGGACCAGGAUUUGGGUCCCGAGGUGCCC,0.225
ACCACAGGCAAUUACUAGCCCUAGUUGAUAGGUGAGGUGGGUGAAGAAGGCUGGAGGUGACAUGUCCGAGGUCACACAACAAAGCAGCAUGCAGGAACUAGAAACACAUC,8.67
CUAGGCAAGUUGUAAAUAAAUUCAUAAUUCAAACAGCCAGUAUAUAUGCAUAUAUGAGUGUUAUAUUGCAAAAUCUUUGUUUUACUUACAUGGUUAAAGCAGCAAGAAUU,0.667
ACCUUAGGGACACCCUGCAGAGUAUGUUCAGUGUCUCGUCUUGGUGUUUCACAGUUCCAUGGUGAUACCUUCCCACACAUGAUUUCCUUUGUACAUUGCUUUUCAUUUUC,0.665
GACGGGAACACGCCGGAGGGUAGAGCUGGGGAGAACCCAUUCUUCCUUGGAAGGAUCCGCUGAAGGUCAGCGUAUAGGUGAUGUACAGUUCCUAAUAUCACAUCAGUCUC,0.368
CAUUUUUUUUUUAUGAUUUGUCUCUGUCACCCUUGUCCUUGAGUGCUCUUGCUAUUAACGUUAUUUGUAAUUUAGUUUGUAGCUCAUUAAAAAAAUGUGCCUAGUUUUAU,0.737
UCCCUGCGGCCUCCACACCUGAACUUGCCUAACUAACUGGCAGGGGAGACAGGAGCCUAGCGGAGCCCAGCCUGGGAGCCCAGAGGGUGGCAAGAACAGUGGGCGUUGGG,0.431
AGAGACUUGAGAGGAACUGUCCCUCCUCCCUCAUGCUUCUCCUCAUCCCUUCAAGCUGGUUGAAGAGAGUAGGCAGGGGCGGGGCCCCGAGGUGCUUCAACCCCACCUAC,0.405
CUUCCCAUCACUUUUCAGUUUCAGAUUGAAGACUCACGAUUGGUUCCACCUUACAAGCAAGGAAAGGAAUAUUGACCUUCAAACUCAUUCAGUGUUGGAGCUCUCUAUGA,0.425

# Study 2
# Target: Histone acetyltransferase KAT6A, winged helix 1, GST fusion (KAT6A, Homo sapiens, UniProt Q92794, residues 1-85)
# Technique: protein binding microarray
# Form: double-stranded DNA, one strand shown
# Matrix: in vitro
# Tested at: not given
# Notes: 8-mer, flanks averaged, mean of 2 arrays, mostly near background
# Relative to: not given
# Reading: higher = stronger binding
# Residues (chain): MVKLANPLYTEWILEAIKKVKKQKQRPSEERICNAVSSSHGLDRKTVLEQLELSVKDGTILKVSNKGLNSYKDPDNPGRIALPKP
Oligonucleotide,E-score
AACCACCT,-0.206
CTGCCACC,-0.0709
ATAATTCA,-0.0884
CCCACTAG,-0.24
CATACACC,0.00191
ACACGATC,-0.127
AAATGAGG,-0.265
GCCGGGCA,0.362
TGGCAAAA,-0.212
CCAGGCAG,-0.14
ATTATGAA,-0.00571
AGAACACT,0.0955
GTAACGAC,0.124
TACTATGA,-0.198
ATAGACGA,-0.0447
ATCGGAAA,0.123
AAATGTCA,-0.131
CTCGGATC,-0.00118
CAATTGTC,-0.0933
CACTCATG,-0.0163
TACCGATA,0.00386
ATTAGATC,-0.00886
AGAAGTCG,-0.0881
GATGAGCC,-0.0634
AAGTGGTA,-0.243

# Study 3
# Target: Hepatocyte nuclear factor 3-alpha (Foxa1, Mus musculus, UniProt P35582, residues 1-468, full length assumed)
# Sequence of UniProt P35582 (whole entry, looked up): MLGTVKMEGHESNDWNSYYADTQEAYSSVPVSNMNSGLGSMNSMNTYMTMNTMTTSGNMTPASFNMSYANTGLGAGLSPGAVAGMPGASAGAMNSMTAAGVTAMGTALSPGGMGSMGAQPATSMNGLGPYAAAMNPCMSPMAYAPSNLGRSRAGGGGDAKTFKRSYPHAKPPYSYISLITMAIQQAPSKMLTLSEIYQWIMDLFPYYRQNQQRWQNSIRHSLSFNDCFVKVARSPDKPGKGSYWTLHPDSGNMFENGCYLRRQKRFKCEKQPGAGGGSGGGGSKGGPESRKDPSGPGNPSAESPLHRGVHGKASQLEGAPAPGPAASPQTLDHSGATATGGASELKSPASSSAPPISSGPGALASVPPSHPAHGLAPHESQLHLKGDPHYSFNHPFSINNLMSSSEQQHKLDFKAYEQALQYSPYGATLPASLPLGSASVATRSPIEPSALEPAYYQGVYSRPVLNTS
# Technique: EMSA with sequencing
# Form: double-stranded DNA, one strand shown
# Matrix: in vitro
# Tested at: 10 and 20 nM
# Notes: whole designed probe, mean of two concentrations, ends assumed
# Relative to: negative control set to 0
# Reading: higher = stronger binding
# Constant ends, left off below: GTGAGCGGTGCCCATTGATGGGGAAC … TTTCACTGGGATCGTGGGGAC
Oligonucleotide,normalised bound fraction [ratio]
ATCTTCCCCCTCTTCCTTGCCCCACCAGCTCACCTTCCCGGGTTATTTGCACAAAGGAAAATAAATAAAGCCGGCATTCGTTAACCCTCTTCACGCGCATACTGCTGTTTGCTCTGGATCTAACATGGTCCTTTGGCGACGCCAGGCTCCGGGAGAGCAAAGCACCGTGTCAGGGCCATGATCCGGGGTGGCC,0.374
GCTGAAGAAGTATTCCACATCCGTCCAAGTGGACTATTCACTTAAGAAAACATTAATGCCATTTGCTGGCACAGATGCCCTTGCATGGCTCATTGTTTACATACTGAAAAACATCTAGCTCCACTGAGCTTTTAAAATTAACTAGAGCCCTTGAACTGTCCAGGCAAAGAGAAAATCATCAGTAATATTTAAA,0.454
GCGACGGCGCCCAATGAGCGGCCAGGATGTTGGAGCGCCGGCGGCGGTCCGGGCGCTCGCTGGCTGAGGGACGGCGGCCGCCGCGTTGATGCTTGTTTGCTTTCAATGAAAACGAGGGGGGCGCGGAGGAGGAGGCGGCGGCGTCGGTGGCGGCGGCGACGGCGGCGCGGAGGCGAAGGCAGCGGCGGGCGCA,0.174
GTTTTCCTGGAGTTTGAAAATTGTTATTCAAGAACGTGTTAGACTTAAATCACTATTCTGGTTAAAAATAAATTAATTGTTCCTTGCATCCCTGTTTACTTAGAAATTATCCCTTTAGTCATCTTAGTTGGAAAGACAAAGCCTCAGAATTTTTTCTACACTTCTTCCTAAAAAATTTCTGCCCACTTAATCC,0.185
CATTAGAGTCAAAGTTGTTAAGGGGAGCTAGTCATAGCTACCACGTGGCCAGGCATGTGGAACCAGACACCAGGCACAATGAATCATCACATCTATTTACTTTAAATAATGCTGACAACCTAGTTCATAGTGACACACTACTTGAGATATATAGAATAACATTATTACCCAGTAAGTATGTGAACATTCCGAT,0.348
ATTACCTTGTTGAATCTTTCTACAATGTATAAATATATTAAAACATCACATTGTATTCCACTAATACACACAATTATTAGTTGTTGATTAAAAGTAATTTAAGAAAAAGGAGAACAATGTTGAAGGACTATAGTAATCAAAACAGTGTGATACTGGCATAAACATAGACATGTAAATCAATGGCATACAATCA,0.187
CTAAAATTGTCTTTTTTAGCTGTATCATGATTGCTTAAAGGCCACTTTATCCATGCTTATTGAAACACTTTCAATAATTGGACACAAATATTTGTTTACATTGTTTCCTGCTTGCTAATTTATCCTCCTGCATTTCTTTAAAAGCATTCATTTGCAATCTTAGTCCTCTTTAAAGACATTGTTTTATTTGAAA,0.469
CTGGAGAAATACAGTACGAAACCCAGCAGGCTTCTGCAATCTACACATCCCTTTAAGTTAATTGGTGTTATATAGAAGCTGAAATGCTCCGCTAAATTACAAAGCTACAGATTTATGTAAAGCAAAACCAATTACACTTAATGCCTAAACTATTCCAGGTGCTCAATGATAATGTTGCTAGGCAGTAGAGAAG,-0.0161

# Study 4
# Target: Sal-like protein 4, full length isoform B (SALL4, Homo sapiens, UniProt Q9UJQ4-2, residues 1-616)
# Technique: universal PBM
# Form: double-stranded DNA, one strand shown
# Matrix: in vitro
# Tested at: not given
# Notes: 8-mer, flanks averaged, mean of replicates
# Reading: higher = stronger binding
# Target sequence (chain): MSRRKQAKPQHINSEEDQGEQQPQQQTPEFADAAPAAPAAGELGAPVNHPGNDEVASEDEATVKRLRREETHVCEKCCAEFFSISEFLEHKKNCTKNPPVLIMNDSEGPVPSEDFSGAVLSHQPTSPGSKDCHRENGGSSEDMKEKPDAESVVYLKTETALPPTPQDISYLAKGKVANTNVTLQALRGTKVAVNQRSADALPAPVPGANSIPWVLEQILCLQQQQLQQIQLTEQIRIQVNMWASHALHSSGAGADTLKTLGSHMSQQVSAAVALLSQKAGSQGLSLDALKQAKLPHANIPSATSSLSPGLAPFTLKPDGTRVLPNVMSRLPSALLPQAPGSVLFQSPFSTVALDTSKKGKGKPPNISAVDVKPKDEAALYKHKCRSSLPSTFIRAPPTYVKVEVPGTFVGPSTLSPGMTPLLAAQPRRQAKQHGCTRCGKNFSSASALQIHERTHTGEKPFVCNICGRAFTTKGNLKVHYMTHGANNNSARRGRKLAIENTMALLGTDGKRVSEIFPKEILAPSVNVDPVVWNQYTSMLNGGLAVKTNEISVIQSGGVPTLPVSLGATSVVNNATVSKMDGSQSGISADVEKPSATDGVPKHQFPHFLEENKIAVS
Oligonucleotide,E-score
ATAGTTAG,0.0965
ATCCTGAA,0.139
AAGCCGCA,-0.0467
AACTGCTC,-0.0776
ATGAGTGG,-0.0708
GTATCAGA,0.0929
ATAAGACG,0.244
GGGAGGGA,-0.112
CCATAGTC,-0.0409
GTTACGAA,0.16
ACATTCTC,0.101
GAGGTGCC,-0.241
AGCCGTAA,0.0808
TCACCTAA,0.0117
GAACAGAA,0.0676
CAGGAACG,-0.206
CCGGAAGG,-0.252
ACTTGGAT,0.175
CGTGGAGA,-0.122
GATGCCGA,-0.142

# A few entries again (study 1):
Oligonucleotide,RBNS enrichment (R)
ACCUUAGGGACACCCUGCAGAGUAUGUUCAGUGUCUCGUCUUGGUGUUUCACAGUUCCAUGGUGAUACCUUCCCACACAUGAUUUCCUUUGUACAUUGCUUUUCAUUUUC,0.665
GACGGGAACACGCCGGAGGGUAGAGCUGGGGAGAACCCAUUCUUCCUUGGAAGGAUCCGCUGAAGGUCAGCGUAUAGGUGAUGUACAGUUCCUAAUAUCACAUCAGUCUC,0.368
CAUUUUUUUUUUAUGAUUUGUCUCUGUCACCCUUGUCCUUGAGUGCUCUUGCUAUUAACGUUAUUUGUAAUUUAGUUUGUAGCUCAUUAAAAAAAUGUGCCUAGUUUUAU,0.737
UCCCUGCGGCCUCCACACCUGAACUUGCCUAACUAACUGGCAGGGGAGACAGGAGCCUAGCGGAGCCCAGCCUGGGAGCCCAGAGGGUGGCAAGAACAGUGGGCGUUGGG,0.431
AGAGACUUGAGAGGAACUGUCCCUCCUCCCUCAUGCUUCUCCUCAUCCCUUCAAGCUGGUUGAAGAGAGUAGGCAGGGGCGGGGCCCCGAGGUGCUUCAACCCCACCUAC,0.405
